Assay results pooled from the literature.
Parts stem from different laboratories: compare values within a part only. Positions count from the first letter of the parent shown.

Sample 1
Target: OGT, full length, His-tagged (human)
Technique: phage display, sequencing
Sample: in vitro
Tested at: 1 µg OGT
Notes: single substitutions, 15-mer displayed peptide, unchanged parent 19.6
Reference: input library
Reading: higher = stronger binding
Quantity: fold enrichment
Parent: peptide; TAPFYPPAYQIQVFK
A8G: 1.06 fold
F4V: 11.2 fold
T1W: 19.7 fold
Q12W: 6.05 fold
A8Y: 6.66 fold
A2L: 22.8 fold
F14Q: 20.1 fold
K15D: 2.49 fold
Y5K: 1.99 fold
P3M: 26.8 fold
P6N: 1.16 fold
K15M: 7.81 fold
T1R: 15.9 fold
F4D: 4.72 fold
I11N: 0.719 fold
A2Q: 14.7 fold

Sample 2
Target: RNA binding protein fox-1 homolog 2, RRM domain, GST-SBP tag (RBFOX2, Homo sapiens, UniProt O43251-10, residues 100-194)
Technique: RNA Bind-n-Seq
Form: RNA
Sample: in vitro
Tested at: 365 nM
Notes: natural RNA segment, single round, ends assumed
Reference: no-protein control
Reading: higher = stronger binding
Quantity: RBNS enrichment (R)
Residues (chain): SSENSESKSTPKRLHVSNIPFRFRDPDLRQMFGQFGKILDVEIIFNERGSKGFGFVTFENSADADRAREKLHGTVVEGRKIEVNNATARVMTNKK
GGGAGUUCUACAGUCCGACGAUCAAGAAUUGGCUUGUAUAGUUAUAACAACCACAGUAGAAACAUUUCUACUUUGAGAGAAUUUCAAUAUUCUCUUAAUGUUGUGUAAUUGAUUAGGUAACUAAAAAGCGCAAUGGAAUUCUCGGGUGCCAA: 0.435
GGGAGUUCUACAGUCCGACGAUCUUAUAUUAAAAAGAUCUGUGGGAAAAUAAAGCCAGCCCUUGUUUUGGAUGUGUUGUUUCUGAAACCCAAGUUUAUGAAUUUUUUGUUUUUCUUUUUUGAGACAGGGUUUCUGGAAUUCUCGGGUGCCAA: 2.7
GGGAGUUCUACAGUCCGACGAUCUGUCUGGUGGGGACGCAGUGGCCCUGGACACGGCUCCCCUCUGCAGGUCUGCAGGUCGGUUUGCUGCCUGCCCUCCUCCUCUCACCCGAUGUCCAGGUGGGAUUUUAAAGUGGAAUUCUCGGGUGCCAA: 0.362
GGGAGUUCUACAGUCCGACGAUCAAAAAAUUCGUGAUUCCUUGAGUGUCCACACGUUUUGUCUUUGGGGGUUAAGGGUUGGGAUUUUGGGUUUGUUGUUAAUUUUGUUGUUUUAAAGGUAAAUUGCACUUUUAUGGAAUUCUCGGGUGCCAA: 1.39
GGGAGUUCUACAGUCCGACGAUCGAGCUAAGGGGUGUGGAGUCCUGCUCCUCCAUUUGUCCUGAUCAUUUCAACACCUGGCCCUUGCUCUCCUGCCCGUGCCAGGACUCCCUAACUCAGGGAGGGAGGGGAGGUGGAAUUCUCGGGUGCCAA: 0.55
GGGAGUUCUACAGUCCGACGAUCAUAACAUCAAUUUAGUUACAAUGCAUGUAGUUUGCACAAUGAUUAAAAUGAAUAGGUUUGUGUUUAUAGCCUAUAAUAACUCUAGUUGAAUCAUGUACACAGCAGGAGUGUGGAAUUCUCGGGUGCCAA: 7.32
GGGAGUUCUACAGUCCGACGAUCUCACACUGGAAGGAGGCUAAGUCUCAGUCUUCAAGUUCUGGACUUUCUUCUCUCCAGUGGCACUUGUUGGCAACUAGAUACAGGUUUCUAACCGGUUCACGGUUCACCCCUGGAAUUCUCGGGUGCCAA: 0.183
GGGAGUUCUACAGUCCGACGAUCAUGCUAGACAUGGAGAACUUGCUCUGUUUGUCCUUUCUACAUUUCUGUAGUUAACAGAACACUGUAAUGUGCCUUGCAGCUUAGUAACUUGUAAUAAAUUCAAUUGAUAUUGGAAUUCUCGGGUGCCAA: 0.763

Sample 3
Target: CCNF, cyclin fold, Cln2 fusion (human)
Technique: yeast growth competition, sequencing
Sample: yeast
Notes: strong parent motif
Reference: not given
Reading: higher = stronger binding
Quantity: normalised enrichment score
Parent: WEE1 docking peptide (human); HKTFRKLRLFDTP
T12S: 2.95
F10A: 1.95
R8C: 2.83
L7T: 0.963
L9D: 0.945
R8V: 3.56
F4K: 3.36
H1Y: 1.89
R5H: 2.48
R5K: 1.46
L7H: 0.94
R5F: 1.63
F4R: 5.67
T12N: 2.77
R5L: 1.95
R5I: 1.59
H1W: 2.58
T3S: 0.183
D11S: 1.87
H1C: 2.86
T12L: 1.94
T12D: 3.1
F10I: 2.09
K6D: 0.994
F4D: 1.68

Sample 4
Target: ABI1, truncated, D143A, DHFR fusion (Arabidopsis thaliana)
Technique: DHFR PCA, deep sequencing
Sample: yeast
Notes: methotrexate growth selection, single substitutions
Added: (+)-ABA 0.0091 µM
Reference: wild-type fitted maximum
Reading: higher = stronger binding
Quantity: relative binding score
Parent: PYL1, truncated, DHFR fusion (Arabidopsis thaliana); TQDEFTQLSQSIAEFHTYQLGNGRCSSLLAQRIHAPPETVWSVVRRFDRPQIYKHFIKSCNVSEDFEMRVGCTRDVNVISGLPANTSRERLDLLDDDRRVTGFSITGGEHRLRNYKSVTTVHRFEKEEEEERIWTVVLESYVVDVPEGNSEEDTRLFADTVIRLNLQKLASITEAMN
R111T: -0.953%
D97P: -1.15%
R111L: -1.35%
R24D: -1.68%
L20S: 36.3%
N165F: -0.866%
N61V: 53.1%
A35I: 0.0258%
I105M: 2.77%
L20E: 30.2%
L82Q: 10.9%
L169V: -2.9%
S87D: 4.25%
P146N: 15%
L112M: 4.48%
I57H: -1.67%
R88I: 36.9%
L8P: -6.68%
S87Y: 53.2%
R99W: 73.7%

For quick reference, copied from above (sample 3):
T3S: 0.183
T12S: 2.95
F4K: 3.36
R8V: 3.56
L7H: 0.94
